Measured values from different studies.
Lines come from different studies, so protocols differ. ± marks the error that the study gave.

SMILES	test	test system	conditions	Cmax
COc1cccc(N2CCN(C3=Nc4c(F)cccc4[C@H](CC(=O)O)N3c3cc(C(F)(F)F)ccc3OC)CC2)c1	UHPLC-MS/MS	healthy women, plasma	intravenous infusion, 240 mg single dose, 30 min infusion, HPβCD formulation	15800 ± 3510 ng/mL
COc1cc(OC)c(/C=C/S(=O)(=O)Cc2ccc(OC)c(NCC(=O)O)c2)c(OC)c1		cancer patients, phase I, plasma	oral, 70 mg twice daily, day 1 cycle 1	400 ± 290 ng/mL
C[C@H]1Oc2cc(cnc2N)-c2c(nn(C)c2C#N)CN(C)C(=O)c2ccc(F)cc21		healthy adults	oral solution, 100 mg single dose, adjusted geometric mean	692 ng/mL
NCCCC[C@H](N[C@@H](CCc1ccccc1)C(=O)O)C(=O)N1CCC[C@H]1C(=O)O		healthy volunteers, plasma	oral, 10 mg, geometric mean, together with: 200 mL green tea extract solution	12.2 ng/mL
Cc1nc(-c2ccc(OCC(C)C)c(C#N)c2)sc1C(=O)O		healthy men, plasma	oral, 40 mg once daily, day 14, arithmetic mean, together with: verinurad 10 mg	664 ng/mL
CN1CC[C@H](c2c(O)cc(O)c3c(=O)cc(-c4ccccc4Cl)oc23)[C@H](O)C1		patients with advanced solid tumours, plasma	intravenous infusion, 70 mg/m^2, 1 h infusion, cycle 1, together with: FOLFOX	2230 ± 510 nM
Cn1cnc2c(F)c(Nc3ccc(Br)cc3Cl)c(C(=O)NOCCO)cc21		ESRD on hemodialysis, plasma	oral, 50 mg single dose, dosed after dialysis	725 ng/mL
CC(C)c1nc(CN(C)C(=O)N[C@H](C(=O)N[C@@H](Cc2ccccc2)C[C@H](O)[C@H](Cc2ccccc2)NC(=O)OCc2cncs2)C(C)C)cs1		healthy male, plasma	600 mg single dose, arithmetic mean, together with: amenamevir 1200 mg	12900 ng/mL
CN1CCN(c2ccc3nc(-c4c(N)c5c(F)cccc5[nH]c4=O)[nH]c3c2)CC1		patients, plasma	oral, 300 mg, day 1, minimum concurrent dosing, together with: gemcitabine and capecitabine	99.4 ng/mL
CS(=O)(=O)n1cc2c(n1)CN([C@H]1CO[C@H](c3cc(F)ccc3F)[C@@H](N)C1)C2		healthy Japanese men, plasma	oral, 10 mg once weekly, day 1	237 nM
CCCN1CC(c2ccc(S(C)(=O)=O)cc2)=C(c2ccc(C)cc2)C1=O		healthy Chinese, non-elderly, plasma	oral, 100 mg	10.8 ng/mL
C=C(C)[C@@H]1CC[C@]2(NCCN3CCS(=O)(=O)CC3)CC[C@]3(C)[C@H](CC[C@@H]4[C@@]5(C)CC=C(C6=CC[C@@](CF)(C(=O)O)CC6)C(C)(C)[C@@H]5CC[C@]43C)[C@@H]12		HIV-1-positive treatment-naive adults, plasma	oral, 10 mg single dose, day 1, with food	60 ng/mL
CCN1CCN(Cc2ccc(Nc3ncc(F)c(-c4cc(F)c5nc(C)n(C(C)C)c5c4)n3)nc2)CC1	population PK model	patients, plasma	oral, 200 mg single dose	123 ng/mL
CCOc1cc([C@@H](CS(C)(=O)=O)N2C(=O)c3cccc(NC(C)=O)c3C2=O)ccc1O[C@@H]1O[C@H](C(=O)O)[C@@H](O)[C@H](O)[C@H]1O		mild renal impairment patients, plasma	oral, 30 mg of apremilast	225 ng/mL
O=C(CCCCCCC(=O)Nc1ccccc1)NO		cancer patients, serum	oral, 600 mg, cycle 1 day 2, together with: flavopiridol 30 to 30 mg/m^2	1160 nM
NC(=O)c1cnc2[nH]ccc2c1N[C@@H]1[C@@H]2CC3C[C@H]1C[C@@](O)(C3)C2		healthy Japanese men, plasma	oral, 60 mg, single dose fasted	241 ng/mL
CC(C)(Sc1ccncc1-c1ccc(C#N)c2ccccc12)C(=O)O		male, plasma	oral, 15 mg, mild renal impairment, fasted	25.6 ng/mL
Cc1ccc(NC(=O)c2ccc(CN3CCN(C)CC3)cc2)cc1Nc1nccc(-c2cncc(-c3oncc3C)c2)n1		Parkinson's disease patients, plasma	oral, 100 mg once daily, day 7, 7-day dosing, mean	3320 ng/mL
N[C@@H](CC(=O)N1CCn2c(nnc2C(F)(F)F)C1)Cc1cc(F)c(F)cc1F		healthy Korean subjects, plasma	oral, 100 mg single dose, ABCB1 G2677T/A GG	467 ± 110 ng/mL
Cc1cc(Nc2cc3ncccc3c(N[C@@H]3C[C@H]4CC[C@@H](C3)N4CCC#N)n2)n[nH]1		pregnant rabbit, maternal plasma	oral, 60 mg/kg/day, gestation day 19	860 ng/mL
CCC1=C(C)CN(C(=O)NCCc2ccc(S(=O)(=O)NC(=O)N[C@H]3CC[C@H](C)CC3)cc2)C1=O		healthy Korean male volunteers, plasma	oral, 4 mg single dose, mean	227 ng/mL
CNC(=O)c1cc(Oc2ccc(NC(=O)Nc3ccc(Cl)c(C(F)(F)F)c3)c(F)c2)ccn1		metastatic colorectal cancer patients, plasma	oral, dose not given, together with: esomeprazole 40 mg concomitant	4400 ng/mL
CCCC[C@H](NC(C)=O)C(=O)N[C@H]1CCC(=O)NC[C@@H](C(=O)N[C@@H](Cc2c[nH]c3ccccc23)C(N)=O)NC(=O)[C@H](CCCNC(=N)N)NC(=O)[C@@H](Cc2ccccc2)NC(=O)[C@H](Cc2c[nH]cn2)NC1=O		healthy volunteers, plasma	subcutaneous, 3.0 mg once daily, day 7, steady state geometric mean	57.2 ng/mL

SMILES	test	test system	conditions	Cmax
CC(C)=CCC[C@](C)(O[C@@H]1O[C@H](CO)[C@@H](O)[C@H](O)[C@H]1O)[C@H]1CC[C@]2(C)[C@@H]1[C@H](O)C[C@@H]1[C@@]3(C)CC[C@H](O[C@@H]4O[C@H](CO)[C@@H](O)[C@H](O)[C@H]4O)C(C)(C)[C@@H]3CC[C@]12C	LC-MS/MS	healthy female volunteers, serum	oral, 3 g red ginseng	1.03 ± 0.39 ng/mL
Cc1ccnc2c1NC(=O)c1cccnc1N2C1CC1		olive baboon (Papio anubis), female, non-pregnant, serum	oral, 10 mg/kg, solution, single dose	594 ng/mL
CN[C@H](CC(C)C)C(=O)N[C@H]1C(=O)N[C@@H](CC(N)=O)C(=O)N[C@H]2C(=O)N[C@H]3C(=O)N[C@H](C(=O)N[C@H](C(=O)O)c4cc(O)cc(O)c4-c4cc3ccc4O)[C@H](O)c3ccc(c(Cl)c3)Oc3cc2cc(c3O[C@@H]2O[C@H](CO)[C@@H](O)[C@H](O)[C@H]2O[C@H]2C[C@](C)(N)[C@H](O)[C@H](C)O2)Oc2ccc(cc2Cl)[C@H]1O	microdialysis	pig (Danish Landrace), subcutaneous adipose tissue	iv infusion, 1000 mg over 100 min, together with: meropenem co-administered	22000 ng/mL
Nc1cc(F)ccc1NC(=O)c1ccc(CNC(=O)/C=C/c2cccnc2)cc1		Japanese patients, plasma	oral, 30 mg twice weekly, cycle 1 day 25, arithmetic mean	240 ng/mL
CCC[C@H](N[C@@H](C)C(=O)N1[C@H](C(=O)O)C[C@@H]2CCCC[C@@H]21)C(=O)O		healthy Chinese volunteers, whole blood	oral, 4 mg perindopril tert-butylamine with indapamide 1.25 mg, single dose, fasting	3.26 ± 1.1 ng/mL
C[C@@H](N)c1cc(Cl)ccc1Cn1c(=S)[nH]c(=O)c2[nH]ccc21		healthy Chinese volunteers, plasma	oral, 5 mg once daily, day 1, multiple dose, geometric mean	21.8 nM
O=C(O)C[C@H](O)C[C@H](O)/C=C/c1c(C2CC2)nc2ccccc2c1-c1ccc(F)cc1		healthy Chinese female volunteers, plasma	oral, 2 mg once daily, multiple dose	98.8 ng/mL
C[C@]12C=CC(=O)C=C1CC[C@@H]1[C@@H]2[C@@H](O)C[C@@]2(C)[C@H]1C[C@H]1O[C@@H](C3CCCCC3)O[C@]12C(=O)CO		children with asthma, serum	inhaled, 80 µg ciclesonide, day 7, geometric LS mean, dose-normalised, spacer	0.201 ng/mL
C[C@H]1CN(C(=O)CC#N)[C@]12CCN(c1ncnc3[nH]ccc13)C2		atopic dermatitis patients, plasma	topical, 5 g of 3% ointment twice daily, day 7	2.89 ± 1.39 ng/mL
CC1=C2C[C@H]3[C@@H](CC[C@@H]4C[C@H](NS(C)(=O)=O)CC[C@@]43C)[C@@H]2CC[C@@]2(C1)O[C@@H]1C[C@H](C)CN[C@H]1[C@H]2C		patients, plasma	oral, 30 mg daily, day 22, cycle 1	27.2 ng/mL
CC(C)=CCC[C@](C)(O[C@@H]1O[C@H](CO)[C@@H](O)[C@H](O)[C@H]1O)[C@H]1CC[C@]2(C)[C@@H]1[C@H](O)C[C@@H]1[C@@]3(C)CC[C@H](O[C@@H]4O[C@H](CO)[C@@H](O)[C@H](O)[C@H]4O[C@@H]4O[C@H](CO)[C@@H](O)[C@H](O)[C@H]4O)C(C)(C)[C@@H]3CC[C@]12C	LC-MS/MS	healthy volunteers, serum	oral, 3 g fermented red ginseng	16.7 ± 6.95 ng/mL
O=C(c1cccnc1-c1ccncc1)N1CCC(O)(Cc2ccccc2)CC1		healthy subjects, plasma	oral, 300 mg twice daily, day 1	1330 ng/mL
CC[C@H](C)CCCCC(=O)N[C@@H](CCN)C(=O)N[C@H](C(=O)N[C@@H](CCN)C(=O)N[C@H]1CCNC(=O)[C@H]([C@@H](C)O)NC(=O)[C@H](CCN)NC(=O)[C@H](CCN)NC(=O)[C@H](CC(C)C)NC(=O)[C@@H](Cc2ccccc2)NC(=O)[C@H](CCN)NC1=O)[C@@H](C)O	UPLC-MS/MS	intensive care patients Non-AKI, plasma	iv, dose not given, end of infusion, steady state, polymyxin B dosing	5600 ± 1800 ng/mL
CC(C)(Sc1ccncc1-c1ccc(C#N)c2ccccc12)C(=O)O		healthy Japanese male subjects, plasma	oral, 10 mg single dose, day 1, fasted, geometric mean	21.9 ng/mL
Cc1ccc(Sc2ccccc2N2CCNCC2)c(C)c1		healthy men, plasma	oral, 10 mg once daily, fed, day 1	4.3 ng/mL
CC(C(=O)O)c1ccc(-c2ccccc2)c(F)c1 (stereo not shown)		healthy volunteers, plasma	oral, 100 mg, arithmetic mean, together with: control beverage 250 mL	9800 ± 4300 ng/mL
CC(=O)Nc1ccc(O)cc1		healthy volunteers, both sexes, plasma	oral, 650 mg, day 1	9300 ng/mL
Nc1ncc(-c2cnn(CCO)c2)c2scc(-c3ccc(NC(=O)Nc4cccc(F)c4)cc3)c12		patient, plasma	oral, 480 mg twice weekly, day 15, trial	780 ± 550 ng/mL
CCOc1ccc2cc(-c3nn(CC4CCN(C)CC4)c4ncnc(N)c34)ccc2c1	LC-MS/MS	Neospora caninum-infected pregnant sheep, plasma	oral, 100 mg/kg, after dose 5	3100 ± 1000 nM
COc1ccc2c3c1O[C@H]1C[C@@H](OC(=O)c4ccccc4)C=C[C@@]31CCN(C)C2		healthy elderly men, plasma	intranasal, 44 mg, single dose	43.2 ng/mL
CCOc1ccc(Cc2cc([C@@H]3S[C@H](CO)[C@@H](O)[C@H](O)[C@H]3O)c(OC)cc2C)cc1		Japanese type 2 diabetes patients, plasma	oral, 5 mg single dose, eGFR 60-89 mL/min/1.73 m^2	244 ± 53.4 ng/mL
O=C1CCc2ccc(OCCCCN3CCN(c4cccc(Cl)c4Cl)CC3)cc2N1		healthy Japanese men, CYP2D6 IM, plasma	oral, 3 mg aripiprazole single, together with: paroxetine 20 mg/day	18.1 ± 3 ng/mL
CC[C@H](C)[C@@H]1NC(=O)[C@H](Cc2ccc(O)cc2)NC(=O)[C@@H](N)CSSC[C@@H](C(=O)N2CCC[C@H]2C(=O)N[C@@H](CC(C)C)C(=O)NCC(N)=O)NC(=O)[C@H](CC(N)=O)NC(=O)[C@H](CCC(N)=O)NC1=O		human, saliva	intranasal, 20 IU	130 ng/mL

A few entries again:
SMILES	test	test system	conditions	Cmax
Cc1cc(Nc2cc3ncccc3c(N[C@@H]3C[C@H]4CC[C@@H](C3)N4CCC#N)n2)n[nH]1		pregnant rabbit, maternal plasma	oral, 60 mg/kg/day, gestation day 19	860 ng/mL
CC1=C2C[C@H]3[C@@H](CC[C@@H]4C[C@H](NS(C)(=O)=O)CC[C@@]43C)[C@@H]2CC[C@@]2(C1)O[C@@H]1C[C@H](C)CN[C@H]1[C@H]2C		patients, plasma	oral, 30 mg daily, day 22, cycle 1	27.2 ng/mL
O=C(O)C[C@H](O)C[C@H](O)/C=C/c1c(C2CC2)nc2ccccc2c1-c1ccc(F)cc1		healthy Chinese female volunteers, plasma	oral, 2 mg once daily, multiple dose	98.8 ng/mL
C[C@H]1Oc2cc(cnc2N)-c2c(nn(C)c2C#N)CN(C)C(=O)c2ccc(F)cc21		healthy adults	oral solution, 100 mg single dose, adjusted geometric mean	692 ng/mL
